Measured values collected from several papers.
Compare with care: the assays were run in different laboratories.
Chain of UniProt Q92630 (whole entry, looked up): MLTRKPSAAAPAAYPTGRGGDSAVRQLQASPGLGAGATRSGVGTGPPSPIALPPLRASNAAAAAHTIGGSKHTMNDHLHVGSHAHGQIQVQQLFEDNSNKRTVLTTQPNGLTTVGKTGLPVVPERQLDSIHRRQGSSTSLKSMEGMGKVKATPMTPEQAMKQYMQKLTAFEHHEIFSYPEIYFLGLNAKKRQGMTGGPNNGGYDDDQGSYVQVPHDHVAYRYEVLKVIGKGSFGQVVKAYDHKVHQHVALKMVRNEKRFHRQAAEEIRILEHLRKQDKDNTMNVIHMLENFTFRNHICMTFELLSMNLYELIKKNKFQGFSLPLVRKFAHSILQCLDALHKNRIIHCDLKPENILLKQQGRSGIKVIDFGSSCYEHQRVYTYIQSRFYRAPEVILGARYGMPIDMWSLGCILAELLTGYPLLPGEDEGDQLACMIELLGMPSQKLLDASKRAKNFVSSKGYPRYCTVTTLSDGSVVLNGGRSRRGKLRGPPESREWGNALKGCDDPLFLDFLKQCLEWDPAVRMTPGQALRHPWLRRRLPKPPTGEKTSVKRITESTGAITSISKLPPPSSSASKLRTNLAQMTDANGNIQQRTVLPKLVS
Chain of UniProt Q8WXR4 (whole entry, looked up): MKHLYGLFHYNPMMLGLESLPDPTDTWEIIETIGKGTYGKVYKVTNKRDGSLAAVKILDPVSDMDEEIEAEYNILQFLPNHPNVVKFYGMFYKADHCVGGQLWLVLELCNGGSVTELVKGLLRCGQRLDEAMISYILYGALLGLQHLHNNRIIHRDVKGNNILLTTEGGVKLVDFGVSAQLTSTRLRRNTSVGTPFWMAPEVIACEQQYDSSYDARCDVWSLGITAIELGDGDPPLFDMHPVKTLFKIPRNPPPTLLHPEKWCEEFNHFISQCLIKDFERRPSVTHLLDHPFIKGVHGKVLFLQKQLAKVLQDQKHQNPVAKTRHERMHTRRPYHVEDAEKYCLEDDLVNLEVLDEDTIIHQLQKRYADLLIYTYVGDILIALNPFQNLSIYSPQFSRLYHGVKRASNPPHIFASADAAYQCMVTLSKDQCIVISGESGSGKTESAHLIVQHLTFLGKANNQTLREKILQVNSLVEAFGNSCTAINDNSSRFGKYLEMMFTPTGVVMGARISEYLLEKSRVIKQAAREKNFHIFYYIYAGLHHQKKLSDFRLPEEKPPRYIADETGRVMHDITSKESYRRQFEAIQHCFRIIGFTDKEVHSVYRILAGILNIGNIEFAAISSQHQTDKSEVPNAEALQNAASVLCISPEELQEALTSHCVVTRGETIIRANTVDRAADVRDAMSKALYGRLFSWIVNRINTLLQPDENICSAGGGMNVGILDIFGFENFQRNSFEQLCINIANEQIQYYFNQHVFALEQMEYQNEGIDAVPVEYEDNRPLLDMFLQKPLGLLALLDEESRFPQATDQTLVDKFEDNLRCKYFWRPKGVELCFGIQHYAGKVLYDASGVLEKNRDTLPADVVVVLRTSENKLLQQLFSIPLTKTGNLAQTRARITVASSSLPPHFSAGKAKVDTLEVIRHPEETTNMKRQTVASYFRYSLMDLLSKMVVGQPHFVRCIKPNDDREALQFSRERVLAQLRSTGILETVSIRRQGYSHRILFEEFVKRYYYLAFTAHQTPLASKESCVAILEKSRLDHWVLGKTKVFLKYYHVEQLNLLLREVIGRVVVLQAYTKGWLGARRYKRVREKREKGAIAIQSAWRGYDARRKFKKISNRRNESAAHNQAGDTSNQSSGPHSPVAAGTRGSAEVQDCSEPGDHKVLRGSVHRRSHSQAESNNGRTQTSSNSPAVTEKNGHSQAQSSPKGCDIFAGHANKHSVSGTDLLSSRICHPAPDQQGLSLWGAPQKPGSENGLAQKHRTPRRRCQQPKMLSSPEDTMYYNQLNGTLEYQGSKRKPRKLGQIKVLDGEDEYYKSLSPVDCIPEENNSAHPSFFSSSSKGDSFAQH
Chain of UniProt Q9H2G2 (whole entry, looked up): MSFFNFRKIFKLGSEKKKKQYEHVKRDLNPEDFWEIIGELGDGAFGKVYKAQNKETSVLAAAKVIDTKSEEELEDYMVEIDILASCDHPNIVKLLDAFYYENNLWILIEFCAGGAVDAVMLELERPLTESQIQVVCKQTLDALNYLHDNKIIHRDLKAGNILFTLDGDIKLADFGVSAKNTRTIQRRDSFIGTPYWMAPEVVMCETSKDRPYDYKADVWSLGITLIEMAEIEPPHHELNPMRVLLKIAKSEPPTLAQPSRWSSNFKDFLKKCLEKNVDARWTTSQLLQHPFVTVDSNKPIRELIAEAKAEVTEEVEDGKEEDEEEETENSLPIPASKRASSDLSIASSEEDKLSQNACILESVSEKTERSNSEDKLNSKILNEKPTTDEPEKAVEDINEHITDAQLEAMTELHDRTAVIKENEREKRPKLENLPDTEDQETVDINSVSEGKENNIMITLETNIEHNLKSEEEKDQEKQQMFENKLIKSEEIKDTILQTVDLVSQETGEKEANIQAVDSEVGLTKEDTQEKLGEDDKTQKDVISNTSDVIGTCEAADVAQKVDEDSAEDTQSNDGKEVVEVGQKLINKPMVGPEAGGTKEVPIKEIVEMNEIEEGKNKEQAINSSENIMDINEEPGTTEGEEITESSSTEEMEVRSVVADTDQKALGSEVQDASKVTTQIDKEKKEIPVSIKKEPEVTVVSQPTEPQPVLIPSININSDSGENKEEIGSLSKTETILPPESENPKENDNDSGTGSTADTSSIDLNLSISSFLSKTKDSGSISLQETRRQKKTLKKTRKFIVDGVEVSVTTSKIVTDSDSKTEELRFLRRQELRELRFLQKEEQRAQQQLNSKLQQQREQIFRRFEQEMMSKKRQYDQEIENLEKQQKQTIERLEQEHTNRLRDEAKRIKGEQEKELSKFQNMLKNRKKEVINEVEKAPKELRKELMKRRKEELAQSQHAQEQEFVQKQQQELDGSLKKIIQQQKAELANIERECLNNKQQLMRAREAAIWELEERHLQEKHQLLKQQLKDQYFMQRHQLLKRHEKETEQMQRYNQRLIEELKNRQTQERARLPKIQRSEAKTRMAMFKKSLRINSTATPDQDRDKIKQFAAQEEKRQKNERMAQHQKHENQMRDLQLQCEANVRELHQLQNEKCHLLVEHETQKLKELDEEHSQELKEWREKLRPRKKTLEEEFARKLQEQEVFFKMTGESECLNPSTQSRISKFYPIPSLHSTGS
Chain of UniProt P54760 (whole entry, looked up): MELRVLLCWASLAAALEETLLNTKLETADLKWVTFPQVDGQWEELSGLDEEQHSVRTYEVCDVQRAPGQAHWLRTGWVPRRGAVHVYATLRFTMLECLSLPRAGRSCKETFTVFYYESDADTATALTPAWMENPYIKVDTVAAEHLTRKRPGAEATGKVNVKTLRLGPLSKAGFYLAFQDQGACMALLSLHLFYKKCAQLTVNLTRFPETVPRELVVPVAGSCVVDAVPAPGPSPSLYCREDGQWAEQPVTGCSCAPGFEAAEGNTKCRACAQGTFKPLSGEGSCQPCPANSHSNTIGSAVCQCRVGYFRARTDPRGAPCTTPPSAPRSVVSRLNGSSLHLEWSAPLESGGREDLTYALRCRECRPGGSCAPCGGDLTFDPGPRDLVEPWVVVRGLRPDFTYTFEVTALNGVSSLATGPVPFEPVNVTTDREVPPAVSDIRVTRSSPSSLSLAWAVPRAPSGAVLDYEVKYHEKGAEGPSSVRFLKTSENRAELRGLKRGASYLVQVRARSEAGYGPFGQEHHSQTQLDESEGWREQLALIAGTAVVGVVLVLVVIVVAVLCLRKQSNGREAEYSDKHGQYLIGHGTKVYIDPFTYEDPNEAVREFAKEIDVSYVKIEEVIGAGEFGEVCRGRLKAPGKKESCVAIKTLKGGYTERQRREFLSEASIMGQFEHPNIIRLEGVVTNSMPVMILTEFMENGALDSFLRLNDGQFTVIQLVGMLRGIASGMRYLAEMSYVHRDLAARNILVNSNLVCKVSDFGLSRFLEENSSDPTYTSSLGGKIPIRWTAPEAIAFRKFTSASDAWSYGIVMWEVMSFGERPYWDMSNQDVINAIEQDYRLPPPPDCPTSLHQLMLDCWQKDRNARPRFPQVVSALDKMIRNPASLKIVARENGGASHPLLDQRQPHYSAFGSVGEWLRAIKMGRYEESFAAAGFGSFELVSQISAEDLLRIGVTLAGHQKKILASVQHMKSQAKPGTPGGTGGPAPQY

Structure (SMILES)	tested on	assay	conditions	quantity	value
Nc1ccn([C@@H]2O[C@H](CO)[C@@H](O)C2(F)F)c(=O)n1	MDA-MB-231	cell growth or viability, MTT	0.15625 µg/mL, 48 h	viability	87.7%
CNC(=O)c1cc(Oc2ccc(NC(=O)Nc3ccc(Cl)c(C(F)(F)F)c3)cc2)ccn1	WISH	cell growth or viability, MTT	100 µM, 24 h	viability	19.7%
COc1cc(-c2cncc3c2CN(C)Cc2cc(N4CCNCC4)ccc2-3)cc(OC)c1OC	DYRK2 (Homo sapiens, UniProt Q92630)	enzyme activity, inhibitor	1 µM	remaining activity	96%
COc1cccc2c1C(=O)c1c(O)c3c(c(O)c1C2=O)C[C@@](O)(C(=O)CO)C[C@@H]3O[C@H]1C[C@H](N)[C@H](O)[C@H](C)O1	SW480	cell growth or viability, MTT	12.5 µg/mL	viability	64.6%
Cc1ccc(S(=O)(=O)[N](Nc2ccc([N+](=O)[O-])cc2[N+](=O)[O-])[Sn]([Cl])[Cl])cc1	HEK293	cell growth or viability, MTT	7.8125 µg/mL	viability	91.6%
COc1cccc(NC(=O)Nc2ccc(Oc3nc4ccccc4n4cnnc34)cc2)c1	WISH	cell growth or viability, MTT	3.125 µM, 24 h	viability	100%
CCCCC(=O)Nc1ccc(-c2ccc3ncn(CCC)c(=O)c3c2)cn1	EPHB4 (Homo sapiens, UniProt P54760)	binding, competition with immobilised ligand	0.5 µM	remaining binding	100%
Cc1ccc(S(=O)(=O)NNc2ccc([N+](=O)[O-])cc2[N+](=O)[O-])cc1	HEK293	cell growth or viability, MTT	15.625 µg/mL	viability	88%
C=CC(=O)N1CCC(COCC(=O)N2CCN(c3nc(-c4cnc(N)nc4C(F)F)nc(N4CCOC[C@@H]4C)n3)CC2)CC1	Myosin-IIIb (MYO3B, Homo sapiens, UniProt Q8WXR4)	binding, competition with immobilised ligand	1 µM	remaining binding	93%
COc1cc(/C=C/C(=O)C(=Cc2ccc(O)cc2)C(=O)/C=C/c2ccc(O)c(OC)c2)ccc1O	WRL68	cell growth or viability, MTT	24.8 µg/mL, 48 h	viability	77.2%
CNc1ncc2c(/C=C/C(=O)N3CCC(OC)CC3)nn(Cc3cccc(C(F)(F)F)c3)c2n1	SLK (Homo sapiens, UniProt Q9H2G2)	enzyme activity, inhibitor, radiometric	1 µM	remaining activity	86%
Cc1csc2[nH]c(=O)n(O)c(=O)c12	HFF	cell growth or viability, MTS	10 µM, 7 days	viability	89%

A few entries again:
Structure (SMILES)	tested on	assay	conditions	quantity	value
C=CC(=O)N1CCC(COCC(=O)N2CCN(c3nc(-c4cnc(N)nc4C(F)F)nc(N4CCOC[C@@H]4C)n3)CC2)CC1	Myosin-IIIb (MYO3B, Homo sapiens, UniProt Q8WXR4)	binding, competition with immobilised ligand	1 µM	remaining binding	93%
COc1cccc2c1C(=O)c1c(O)c3c(c(O)c1C2=O)C[C@@](O)(C(=O)CO)C[C@@H]3O[C@H]1C[C@H](N)[C@H](O)[C@H](C)O1	SW480	cell growth or viability, MTT	12.5 µg/mL	viability	64.6%
